Assay results collected from several papers.
Protocols differ between the studies behind these lines. Several values in a cell are separate wells, animals, samples, runs or records. Numbers after ± are the reported error.

Compound	cell line	assay	conditions	how to read	measurement	value
Cc1cc(NC2CCN(C)CC2)ccc1-c1cc2c(N3CCC[C@H](C(=O)N[C@@H](C)c4ccccc4)C3)ncnc2[nH]1	NCI-H2228	cell growth or viability, MTT	0.2 µg/mL, 72 h	–	inhibition	58.3%
COc1cc(OC)c(F)c(/C=C/c2cnc3ccn(S(=O)(=O)c4cn(CCF)cn4)c3n2)c1F	SNU-16 (FGFR2-amplified)	cell proliferation	111.1 nM	–	inhibition	57.2% and 59.4%
CN1CCCNC(=O)c2cccc(c2)C(=O)NCCCN(C)CCCNc2cccc3c2C(=O)c2cccc(c2C3=O)NCCC1	SAS	RNA-Seq, refers to: UBE2D3 mRNA	1 µM, 6 h	reference: untreated cells	log2 fold change	-0.665
COc1ccc2c(c1)c(CC(=O)[Se]CC(=O)Nc1cccc(C(F)(F)F)c1)c(C)n2C(=O)c1ccc(Cl)cc1	NCI60 renal subpanel	cell growth	10 µM, 48 h, one-dose	–	mean growth percent	-86.6%
Cc1ncsc1-c1ccc(C(C)NC(=O)C2CC(O)CN2C(=O)C(NC(=O)CCCCCCCCCCN2CCCC(Nc3ncc(Cl)c(Nc4ccccc4S(=O)(=O)C(C)C)n3)C2)C(C)(C)C)cc1 (stereo not shown)	22Rv1	RNA-seq, refers to: TWIST1 mRNA	concentration not given	reference: DMSO	log2 fold change	-1.76
CC(C)(O)c1ccn2c(-c3ccc(F)c(-c4ccc(F)cc4C#N)c3)cnc2c1F	HEK-293T stably expressing GABAA receptors	Western blot, refers to: VCP, SEL1L, Hrd1, Grp94	5 µM, 24 h, ERAD factors, with: hispidulin 10 µM	–	protein level	no effect
O=C(C[Se]C(=O)c1cccnc1Nc1cccc(C(F)(F)F)c1)Nc1cccc(C(F)(F)F)c1	LNCaP	Muse oxidative stress	10 µM, 24 h, with: H2O2 250 µM	–	ROS-positive cells	~15%
COc1cc(-c2cc3c(N4CCC[C@H](C(=O)NCc5ccc(OC(F)(F)F)cc5)C4)ncnc3[nH]2)cc(OC)c1OC	NCI-H2228	cell growth or viability, MTT	0.04 µg/mL, 72 h	–	inhibition	33.8%
CO[C@@H]1[C@@H](OC(N)=O)[C@@H](O)[C@H](Oc2ccc3c(O)c(NC(=O)c4ccc(O)c(CC=C(C)C)c4)c(=O)oc3c2C)OC1(C)C	HCT-116 parental	–	100 µM	reference: untreated	colony survival	81.2%
COc1c(C)c(OC(=O)c2ccccc2)c(C)c(OC(=O)c2ccccc2)c1C(=O)/C=C/c1ccccc1	KKU-M213	SRB	–	reference: normal over KKU-M213 IC50	selectivity index	0.8
CCOc1cncc(-c2ccc(NC(=O)C3(c4ccnc(NS(=O)(=O)C5CC5)n4)CCOCC3)nc2)n1	A204	cell proliferation, CellTiter-Glo	72 h, Sarcoma cancer	–	IC50	0.113 µM
Cc1ccc(/C=N/N=C(\S)Nc2cccc(S(=O)(=O)N(C)C)c2)o1	LDR	silenced CMV-GFP reporter derepression, qHTS	–	–	Emax	72%
Cc1noc(C)c1-c1cc2c(N3CCC[C@H](C(=O)NCc4ccc(OC(F)(F)F)cc4)C3)ncnc2[nH]1	NCI-H2228	cell growth or viability, MTT	0.04 µg/mL, 72 h	–	inhibition	31.6%
CNS(=O)(=O)Nc1nccc(Cc2c(C)c3ccc(Oc4ncccc4F)cc3oc2=O)c1F	KYSE-520	cell viability	7 days	–	IC50	0.00803 µM
COc1ccc(O)cc1-c1c[nH]c2ncc(-c3cncc(C(=O)N(C)C)c3)cc12	Ba/F3 BCR-ABL T315I	cell proliferation	72 h	–	GI50	0.0549 ± 0.0028 µM
CC(C)c1ccc(N(C)c2ccc3c(c2)OCC[C@H]3CNc2cnccc2C(=O)O)cc1	786-O	cell growth, CellTiter-Glo	7 days	–	IC50	0.0225 µM
Cn1cc(-c2cc3c(N4CCC[C@H](C(=O)NCc5ccc(OC(F)(F)F)cc5)C4)ncnc3[nH]2)cn1	NCI-H2228	cell growth or viability, MTT	0.2 µg/mL, 72 h	–	inhibition	62.8%
Cc1sc2c(c1C)C(c1ccc(Cl)cc1)=N[C@@H](CC(=O)NCC(=O)N1CCC3(CCC(C(=O)N4CCN(C(=O)c5cc(Cc6n[nH]c(=O)c7ccccc67)ccc5F)CC4)CC3)CC1)c1nnc(C)n1-2	NCI-H82	–	100 nM, 24 h	–	cells in S phase	77%
O=C(N1CCCC1)n1cc(-c2ccc(-c3ccccc3)cc2)nn1	mouse T cells	N-terminal labelling proteomics, refers to: Ndrg1 N-terminal peptide	0.001 µM, 6 h	reference: DMSO	SILAC ratio per peptide	1.43 and 1.04

Excerpt of the above:
Compound	cell line	assay	conditions	how to read	measurement	value
CN1CCCNC(=O)c2cccc(c2)C(=O)NCCCN(C)CCCNc2cccc3c2C(=O)c2cccc(c2C3=O)NCCC1	SAS	RNA-Seq, refers to: UBE2D3 mRNA	1 µM, 6 h	reference: untreated cells	log2 fold change	-0.665
